Experimental data collected from several papers.
A part holds a random share of what one study measured. Values joined by “and” are separate records of one study, mostly repeats; a detail may differ. Changes are numbered by the printed parent chain.
UniProt P93022, sequence (whole entry, looked up): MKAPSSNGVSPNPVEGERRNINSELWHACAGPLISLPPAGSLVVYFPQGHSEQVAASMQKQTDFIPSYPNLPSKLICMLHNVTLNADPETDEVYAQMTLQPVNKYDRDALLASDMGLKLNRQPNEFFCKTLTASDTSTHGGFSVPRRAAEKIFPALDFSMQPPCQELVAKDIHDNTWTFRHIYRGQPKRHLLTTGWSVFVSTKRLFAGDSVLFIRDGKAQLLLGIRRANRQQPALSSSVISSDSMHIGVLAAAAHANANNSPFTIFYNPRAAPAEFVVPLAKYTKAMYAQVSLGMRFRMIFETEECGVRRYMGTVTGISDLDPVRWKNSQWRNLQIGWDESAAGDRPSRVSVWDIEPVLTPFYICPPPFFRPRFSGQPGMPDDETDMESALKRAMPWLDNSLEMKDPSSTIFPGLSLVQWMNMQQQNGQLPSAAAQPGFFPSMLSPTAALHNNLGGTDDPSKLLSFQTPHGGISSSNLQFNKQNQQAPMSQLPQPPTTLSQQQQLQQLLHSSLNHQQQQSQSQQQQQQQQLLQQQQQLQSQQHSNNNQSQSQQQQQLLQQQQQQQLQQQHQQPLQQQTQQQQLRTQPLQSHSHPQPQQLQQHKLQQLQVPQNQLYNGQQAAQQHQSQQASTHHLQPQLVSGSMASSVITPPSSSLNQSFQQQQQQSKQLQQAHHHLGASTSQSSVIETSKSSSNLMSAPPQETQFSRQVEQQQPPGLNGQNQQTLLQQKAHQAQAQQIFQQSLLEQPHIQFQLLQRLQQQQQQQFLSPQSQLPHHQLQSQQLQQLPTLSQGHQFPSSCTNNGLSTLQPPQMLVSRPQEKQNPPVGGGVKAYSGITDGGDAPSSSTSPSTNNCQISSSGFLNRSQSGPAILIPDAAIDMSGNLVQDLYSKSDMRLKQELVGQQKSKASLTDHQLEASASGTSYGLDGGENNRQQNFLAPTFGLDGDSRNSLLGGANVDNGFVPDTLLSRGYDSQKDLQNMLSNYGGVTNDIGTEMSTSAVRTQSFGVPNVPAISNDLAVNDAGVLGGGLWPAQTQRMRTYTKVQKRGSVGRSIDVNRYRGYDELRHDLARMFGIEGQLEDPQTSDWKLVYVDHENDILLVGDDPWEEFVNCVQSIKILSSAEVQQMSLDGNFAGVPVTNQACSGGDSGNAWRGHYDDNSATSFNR
UniProt P28223, sequence (whole entry, looked up): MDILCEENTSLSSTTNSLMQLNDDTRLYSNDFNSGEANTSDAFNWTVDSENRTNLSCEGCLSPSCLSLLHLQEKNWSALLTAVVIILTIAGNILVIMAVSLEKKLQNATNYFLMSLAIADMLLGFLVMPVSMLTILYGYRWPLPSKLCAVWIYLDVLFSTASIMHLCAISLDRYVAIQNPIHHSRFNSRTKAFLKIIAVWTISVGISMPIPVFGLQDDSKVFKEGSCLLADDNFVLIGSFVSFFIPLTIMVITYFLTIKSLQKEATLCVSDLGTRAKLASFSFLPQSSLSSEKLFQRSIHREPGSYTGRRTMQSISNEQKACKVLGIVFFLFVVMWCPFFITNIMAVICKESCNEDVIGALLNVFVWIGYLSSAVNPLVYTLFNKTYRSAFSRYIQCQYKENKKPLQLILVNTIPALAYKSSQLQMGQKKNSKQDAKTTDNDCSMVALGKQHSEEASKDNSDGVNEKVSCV

Set 1
Target: CCNA1, cyclin fold, Cln2 fusion (human)
Technique: yeast growth competition, sequencing
Sample: yeast
Setting: strong parent motif
Relative to: not given
Reading: higher = stronger binding
Parent: viral docking peptide; TSVRRALFTGGSD
For `L7F`, “normalised enrichment score” read -0.157.
`V3G`: “normalised enrichment score” -0.291.
`S2L`: “normalised enrichment score” 0.914.
Under “normalised enrichment score”, `A6P` is recorded as 0.2.
`R5C` — result for “normalised enrichment score”: -0.103.
For `T9Y`, “normalised enrichment score” read 1.19.
`A6N`: “normalised enrichment score” 0.862.
For `V3P`, “normalised enrichment score” read 0.134.
For `V3S`, “normalised enrichment score” read -0.142.
For `V3M`, “normalised enrichment score” read 0.254.
`F8I` — result for “normalised enrichment score”: -0.0382.
`R4H` — result for “normalised enrichment score”: 0.131.
For `S2F`, “normalised enrichment score” read 0.514.
`R5P` — result for “normalised enrichment score”: -0.394.
`F8M` — result for “normalised enrichment score”: 0.228.
`T9I`: “normalised enrichment score” 0.706.
For `L7T`, “normalised enrichment score” read 0.394.
`R5G` — result for “normalised enrichment score”: 0.23.
`S12C` — result for “normalised enrichment score”: 1.09.
`S12Q`: “normalised enrichment score” 1.36.
For `V3D`, “normalised enrichment score” read -0.121.
Under “normalised enrichment score”, `T1A` is recorded as 0.817.
Under “normalised enrichment score”, `T9M` is recorded as 0.932.
`L7I` — result for “normalised enrichment score”: -0.0498.
Under “normalised enrichment score”, `G11A` is recorded as 0.8.

Set 2
Target: CRIPT, C-terminal peptide
Technique: DHFR complementation, deep sequencing
Sample: yeast
Setting: single substitutions, model-inferred values
Relative to: wild type
Reading: higher = weaker binding
Parent: ERBIN, PDZ domain 1 (human); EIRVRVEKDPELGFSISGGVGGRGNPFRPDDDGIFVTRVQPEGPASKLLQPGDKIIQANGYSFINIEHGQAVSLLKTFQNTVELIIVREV; partner TKNYKQTSV
`K76Y`: “binding free energy change” 0.946 kcal/mol.
Under “binding free energy change”, `D32K` is recorded as 0.476 kcal/mol.
`I85T` — result for “binding free energy change”: -0.0353 kcal/mol.
`S46N` — result for “binding free energy change”: 0.0269 kcal/mol.
For `E89Q`, “binding free energy change” read 0.0684 kcal/mol.
`E83L`: “binding free energy change” 0.158 kcal/mol.
`G24M` — result for “binding free energy change”: 1.45 kcal/mol.
Under “binding free energy change”, `T77E` is recorded as 0.0904 kcal/mol.

Set 3
Target: TEF, bZIP domain (human)
Technique: DHFR protein complementation
Sample: yeast
Setting: single substitutions, most at no-binding floor
Relative to: wild-type JUN-FOS pair
Reading: higher = stronger binding
Parent: JUN, bZIP domain (human); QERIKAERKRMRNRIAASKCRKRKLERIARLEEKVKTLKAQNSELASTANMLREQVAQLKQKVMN; partner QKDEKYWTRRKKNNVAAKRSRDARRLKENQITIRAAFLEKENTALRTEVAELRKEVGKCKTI
`A29Q` gave a binding fitness of -1.27 natural log.
The binding fitness of `A57Y` is reported as -1.32 natural log.
`S47W` gave a binding fitness of -1.3 natural log.
For `V56T`, the binding fitness was -1.54 natural log.
`R30L` gave a binding fitness of -1.42 natural log.
The binding fitness of `L52W` is reported as -1.48 natural log.
With `V56K` the binding fitness was -1.35 natural log.
With `K36P` the binding fitness was -1.5 natural log.

Set 4
Target: Homeobox protein Hox-C11, full length (HOXC11, Homo sapiens, UniProt O43248, residues 1-304)
UniProt O43248, sequence (whole entry, looked up): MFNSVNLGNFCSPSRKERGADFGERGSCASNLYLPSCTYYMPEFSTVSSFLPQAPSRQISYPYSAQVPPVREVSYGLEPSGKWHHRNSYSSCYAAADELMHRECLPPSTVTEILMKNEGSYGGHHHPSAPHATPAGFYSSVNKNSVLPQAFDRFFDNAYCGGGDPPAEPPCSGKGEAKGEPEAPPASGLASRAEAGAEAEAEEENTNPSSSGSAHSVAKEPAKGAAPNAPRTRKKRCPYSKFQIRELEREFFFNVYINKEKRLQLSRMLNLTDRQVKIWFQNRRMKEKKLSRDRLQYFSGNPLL
Technique: protein-binding microarray
Form: hairpin DNA
Sample: in vitro
Concentration: not given
Setting: whole hairpin DNA, median over replicate spots
Relative to: not given
Reading: higher = stronger binding
`GAGGCCCGGTCGTTAAAGCCTCCTGGCTTTAACGACCGGGCCTCACACTC (5mC at 7 37)` gave a median fluorescence of 10100 a.u.
For `GAGGCCAGGTCGCTAAAGCCTCCTGGCTTTAGCGACCTGGCCTCACACTC (5mC at 13)`, the median fluorescence was 9860 a.u.
For `GAGGCCAGGTCGTCAAAGCCTCCTGGCTTTGACGACCTGGCCTCACACTC (5mC at 14)`, the median fluorescence was 10200 a.u.
`GAGGCCAGGTCCTTAAAGCCTCCTGGCTTTAAGGACCTGGCCTCACACTC` has a median fluorescence of 8120 a.u.
`GAGGCCAGGCCGTTAAAGCCTCCTGGCTTTAACGGCCTGGCCTCACACTC` gave a median fluorescence of 9220 a.u.
For `GAGGCCAGGTCTTTAAAGCCTCCTGGCTTTAAAGACCTGGCCTCACACTC`, the median fluorescence was 7770 a.u.
With `GAGGCCCGGTCGTAAAAGCCTCCTGGCTTTTACGACCGGGCCTCACACTC (5mC at 7)` the median fluorescence was 10500 a.u.
For `GAGGCCAGGCGGTTAAAGCCTCCTGGCTTTAACCGCCTGGCCTCACACTC (5mC at 10)`, the median fluorescence was 9800 a.u.

Single results of other studies
B1: ARF6 790-935 (Arabidopsis thaliana, UniProt Q9ZTX8); chain SENPQSNTFVKVYKSGSFGRSLDISKFSSYHELRSELARMFGLEGQLEDPVRSGWQLVFVDRENDVLLLGDDPWPEFVSSVWCIKILSPQEVQQMGKRGLELLNSAPSSNNVDKLPSNGNCDDFGNRSDPRNLGNGIASVGGSFNY
Under interaction screen, `MBD3 (Homo sapiens, UniProt O95983)` is recorded as “cross-linked” (GATAD2A (Homo sapiens, UniProt Q86YP4); cross-linking MS; hits only).
`HSPA8 (Homo sapiens, UniProt P11142)`: cross-linked residues “K112 to M1” (SLC25A38 (Homo sapiens, UniProt Q96DW6); cross-linking MS; cells; together with: BSPNO).
`SMC1A (Homo sapiens, UniProt Q14683)` — result for cross-linked residues: “E1012 to K282” (PDS5B (Homo sapiens, UniProt Q9NTI5); cross-linking MS; cell fractions; together with: DMTMM).
`B1 (ARF6 790-935)` has a positive tests of 1 (ARF7 1030-1164 (Arabidopsis thaliana, UniProt P93022); two-hybrid; relative to: out of 2 tests, higher = firmer interaction).
`SF3B1 (Homo sapiens, UniProt O75533)` — result for interaction screen: “cross-linked” (DDX46 (Homo sapiens, UniProt Q7L014); cross-linking MS; hits only).
With `CC(C)S(=O)(=O)c1cc2c(Nc3ccc4sc(C5CCCC5)nc4c3)ccnc2cc1OCCO` the cell survival was 98.1% and 93.1% and 92% (HT-29; necroptosis, CCK-8; 3.333 µM, together with: TNF-α, Smac mimetic, z-VAD).
Under cross-linked residues, `EXOC5 (Homo sapiens, UniProt O00471)` is recorded as “K132 to K60” (EXOC8 (Homo sapiens, UniProt Q8IYI6); cross-linking MS; cell fractions; together with: DSSO).
`CNC(=O)Nc1ccc2c(c1)CC[C@]21OC(=O)N(CC(=O)N(Cc2ccc(F)cc2)[C@@H](C)C(F)(F)F)C1=O` has an inhibition of 34.6% (HTR2A (Homo sapiens, UniProt P28223); ligand displacement; 10 µM).

Repeated from above (set 1):
`R5P` — result for “normalised enrichment score”: -0.394.
For `S2F`, “normalised enrichment score” read 0.514.
`F8M` — result for “normalised enrichment score”: 0.228.
Under “normalised enrichment score”, `T9M` is recorded as 0.932.
